Published values gathered from unrelated publications.
Each numbered part is a random draw from the data of one study; scales do not carry over between parts.

Study 1 — technique: RNA Bind-n-Seq; form: RNA; medium: in vitro; concentration: 365 nM; reference: no-protein control; direction: higher = stronger binding
Target: RNA binding protein fox-1 homolog 2, RRM domain, GST-SBP tag (RBFOX2, Homo sapiens, UniProt O43251-10, residues 100-194)
Notes: natural RNA segment, single round, ends assumed
All sequences stand within: GGGAGUUCUACAGUCCGACGAUC … UGGAAUUCUCGGGUGCCAA
Target sequence (chain): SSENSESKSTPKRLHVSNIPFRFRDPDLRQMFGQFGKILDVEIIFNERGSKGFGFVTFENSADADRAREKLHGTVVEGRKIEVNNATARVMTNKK
| Sequence | RBNS enrichment (R) |
| --- | --- |
| AGCUCUCAGCACUGGGUGGGAGGGCGUUGGCUUGUCCAGAAUGGGGACGUGGGGCAGCCACCCCUGCCCAGCGAGAGCGCAGACACCGUGUGAGGGGACAGCAGCCCUUG | 1.94 |
| AUUUGUUAGAAGUUUAACUCCUAACAACCCAAAGACCUAUUUAACAAUUGGUGCAUAAAUGAAAGUAGUACUGUAUACUUGAAACUGUUUAAGUACAAGUUGAACAAAAA | 0.234 |
| GUGUAGCAGCCUCCAGGCAGGAUUCAGCACAACACUGGGGAGUCACCCUUCCCUCGGGCCUCUGCCUACCAACAACUGGGCUUAUCACUGGGAAAACACAAAAAAUUACA | 0.471 |
| GGACCAACCAAAGUGUGUCAACCCUGUUUCCUUAAAAGAGGCUAUGAAUCCCAAAGGCCACAUCCAAGACAGGCAAUAAUGAGCAGAGUUUACAGCUCCUUUAAUAAAAU | 0.396 |
| GGGUUAUAGGUGUUUAAAUUUCCUUUAGUGAAACUCUUAUUUAUUUUUAUGUAUUCCUGUUUAUUUAUUUACUGCCACGCUACUGAUAUUCAGACCUUCAUGAUCAUCCA | 0.833 |
| AGAAACAUUAAUUAAGUGUAUGGCUGCCUUUGAAAUACUUGAUGUGUUGUUGUUGCCUUACAGAGGACUACAAGUAUAAAGCAAAUAGCUGUUUUAAAAUUAUGUAAAUA | 0.621 |
| UCCAGCCAACACACAGGACUGUAAGAGGACUCUGAGCUACGUGCCCUGUGAAGACCCCCAGGCUUUGUCAUAGGAGGUCGUUCAGCUUCCCCAAAGUCAGAGGUGAUUUG | 0.457 |
| UCAGGUCAACUGGAUAAGAUUGUAGAACUCAUGACAGGCGGAGCUCAAACCCCAGUCACCAAUGCAAAUAAAAUCUUCUAUUUAAACCUGCUGGCUCAGUAUCGGCUGGC | 0.302 |

Study 2 — technique: EMSA with sequencing; form: double-stranded DNA, one strand shown; medium: in vitro; concentration: 10 and 20 nM; reference: negative control set to 0; direction: higher = stronger binding
Target: Hepatocyte nuclear factor 3-alpha (Foxa1, Mus musculus, UniProt P35582, residues 1-468, full length assumed)
UniProt P35582, sequence (whole entry, looked up): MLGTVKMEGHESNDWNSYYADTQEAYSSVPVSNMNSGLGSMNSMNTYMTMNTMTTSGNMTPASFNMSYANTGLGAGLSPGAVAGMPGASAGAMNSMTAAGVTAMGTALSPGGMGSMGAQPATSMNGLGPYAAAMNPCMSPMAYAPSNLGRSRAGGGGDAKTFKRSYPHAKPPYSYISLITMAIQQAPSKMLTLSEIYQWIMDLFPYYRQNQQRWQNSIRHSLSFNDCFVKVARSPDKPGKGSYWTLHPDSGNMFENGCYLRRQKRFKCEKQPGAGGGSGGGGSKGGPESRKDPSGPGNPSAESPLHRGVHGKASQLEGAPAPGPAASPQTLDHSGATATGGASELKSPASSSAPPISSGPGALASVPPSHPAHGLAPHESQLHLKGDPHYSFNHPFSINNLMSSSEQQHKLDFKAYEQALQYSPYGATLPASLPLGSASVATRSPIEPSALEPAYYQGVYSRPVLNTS
Notes: whole designed probe, mean of two concentrations, ends assumed
All sequences stand within: GTGAGCGGTGCCCATTGATGGGGAAC … TTTCACTGGGATCGTGGGGAC
| Sequence | normalised bound fraction |
| --- | --- |
| CTCTCTGGTGGTTCTAGCTCATACACGGCTAATGATTTATGAGGCAGTGTTGTGTGGCACTACCTAGCTGTTACTTTCTTGCCTACTCTGCTGAGTAAACAGGGGCCCTGTCTTAGCTGGGTTTGAAGTCTGTTCCCTAGGGAAGGGCACTGTGTCCCCGAGTCACCAGAGAGGAGGGGCAAGGGCATCTCCT | 0.272 ratio |
| ATCTTCCCCCTCTTCCTTGCCCCACCAGCTCACCTACGGGGGTTATTTGCAGATAGGAAAATAAATAAAGCCGGCATTCGTTAACCCTCTTCACGCGCATACTGCTGTTTGCTCTGCATGAATCATGGTCCTTACGCGACGCCAGGCTCCGGGAGAGCAAAGCACCGTGTCAGGCGCATGATCCGGGCTCGCC | 0.347 ratio |
| TTGCATAAAGATTTATAGTTTAAGGTGGAGGGAGGCAGAGTTCTGGTTGGCACCAAGTAACCCAGCTGTGGTGAAAATGGGACTAAAGGAAAGTAATCTAGGAAAGACTGACAAATGCACACTGTATTTTATAGAAAGCCTATGTCTGTGACTCTAGTGGTTTTAGTGAATCTGGAATACTTTATAATTCAAT | -0.0074 ratio |
| ACAAAAATTCTTGAGCCATTTCCAGATACCGAATCTGACTCAGTGTTGGCAAAACCTACAAAATGAGTGACCAAGAAGGATAAACAAGTTTAGGTAAACACTCTATAGACTGATTCATGATTTAAGTACATCAGTTAGCATTTAGCTTCATTTACCATCGTGTTTTAATGTCATTAAGAATGTAACTTCTTAG | 0.266 ratio |
| ATCTCGTAACAAATGGCTTCAGGGTGTTCAGCTGTTCTGCAGCTATGCTGAGGAATTCCTGCCTGTACAAAAGTCACTGTTCCAAGTCCTGTTTGTTTACATTTTACTAATAAACCTCTGCCTCTGTGCTTAGCCTGAGGGGCTGCAGAGCTCCACACCCAGGAGTGGGCCCTCTGGGGATGCTGGGGTTTGA | 0.48 ratio |

Study 3 — technique: aptamer microarray, sandwich; form: DNA with 2'F-ANA; medium: in vitro; concentration: 200 nM; with: Cy3 exosite-II aptamer, 400 nM; direction: higher = stronger binding; sequence: GGTTGGTGTGGTTGG
Target: Prothrombin, mature alpha-thrombin (F2, Homo sapiens, UniProt P00734)
Notes: whole 15-mer aptamer, many near background
| Modification | mean fluorescence intensity [a.u.] |
| --- | --- |
| 2'F-ANA at 2 3 7 9 10 11 12 13 15 | 364 |
| 2'F-ANA at 1 3 4 5 7 9 10 11 12 13 | 53.3 |
| 2'F-ANA at 2 3 4 7 8 10 11 13 14 15 | 153 |
| 2'F-ANA at 3 5 6 8 9 11 14 | 79.1 |
| 2'F-ANA at 5 6 7 15 | 73.9 |
| 2'F-ANA at 6 8 10 11 13 | 153 |
| 2'F-ANA at 3 4 6 7 10 11 13 14 15 | 166 |
| 2'F-ANA at 2 3 5 6 7 10 12 14 | 44.9 |
| 2'F-ANA at 1 3 6 7 9 12 14 | 95.6 |
| 2'F-ANA at 1 2 4 5 7 8 9 10 13 14 | 79.7 |
| 2'F-ANA at 1 2 4 5 8 10 12 13 14 15 | 48.3 |
| 2'F-ANA at 3 4 5 6 8 9 10 11 | 48.5 |
| 2'F-ANA at 1 3 4 7 8 10 12 14 | 54.5 |
| 2'F-ANA at 1 3 5 6 7 13 | 60.9 |
| 2'F-ANA at 1 2 4 5 6 7 9 11 14 15 | 55 |
| 2'F-ANA at 1 2 6 7 8 10 11 12 14 15 | 53.2 |
| 2'F-ANA at 1 2 3 4 5 7 8 9 11 15 | 66.2 |
| 2'F-ANA at 2 5 9 10 13 15 | 44.5 |
| 2'F-ANA at 1 2 3 4 5 6 8 10 12 13 | 45.3 |
| 2'F-ANA at 2 4 8 9 12 13 14 | 99.4 |
| 2'F-ANA at 5 7 14 | 44.5 |
| 2'F-ANA at 1 3 4 7 9 12 13 | 224 |

Study 4 — technique: universal PBM; form: double-stranded DNA, one strand shown; medium: in vitro; concentration: not given; direction: higher = stronger binding
Target: Sal-like protein 4, full length isoform B (SALL4, Homo sapiens, UniProt Q9UJQ4-2, residues 1-616)
Notes: 8-mer, flanks averaged, mean of replicates
| Sequence | E-score |
| --- | --- |
| CCATCCCA | -0.0024 |
| AATTATCC | 0.297 |
| AACCGGTG | -0.305 |
| ATAGCAAC | 0.145 |
| CCACCCCA | -0.139 |
| ATTGCAAC | 0.0202 |
| CGAACTAG | -0.0711 |
| CGCACTGA | -0.223 |
| CGCTAATA | 0.221 |
| AAGGGTAT | 0.21 |
| CTGTGAAC | -0.0158 |
| CACAGAAC | -0.0357 |
| CCTCCCTC | -0.164 |
| ATGCTCTG | -0.0761 |
| AACTGGTA | -0.0842 |
| GGAGGATA | 0.0618 |
| CAGTGCTA | -0.114 |
| GAATGTCC | 0.0589 |
| CCTCTTCA | 0.103 |
| CGAGCTTA | -0.103 |
| AGGAATCG | -0.132 |
| TAATAGAA | 0.349 |
| ATCCGGGA | -0.235 |
| GCACATGC | -0.146 |
| AAAACCTT | 0.0583 |

For quick reference, copied from above (study 2):
| Sequence | normalised bound fraction |
| --- | --- |
| CTCTCTGGTGGTTCTAGCTCATACACGGCTAATGATTTATGAGGCAGTGTTGTGTGGCACTACCTAGCTGTTACTTTCTTGCCTACTCTGCTGAGTAAACAGGGGCCCTGTCTTAGCTGGGTTTGAAGTCTGTTCCCTAGGGAAGGGCACTGTGTCCCCGAGTCACCAGAGAGGAGGGGCAAGGGCATCTCCT | 0.272 ratio |
| ATCTTCCCCCTCTTCCTTGCCCCACCAGCTCACCTACGGGGGTTATTTGCAGATAGGAAAATAAATAAAGCCGGCATTCGTTAACCCTCTTCACGCGCATACTGCTGTTTGCTCTGCATGAATCATGGTCCTTACGCGACGCCAGGCTCCGGGAGAGCAAAGCACCGTGTCAGGCGCATGATCCGGGCTCGCC | 0.347 ratio |
| TTGCATAAAGATTTATAGTTTAAGGTGGAGGGAGGCAGAGTTCTGGTTGGCACCAAGTAACCCAGCTGTGGTGAAAATGGGACTAAAGGAAAGTAATCTAGGAAAGACTGACAAATGCACACTGTATTTTATAGAAAGCCTATGTCTGTGACTCTAGTGGTTTTAGTGAATCTGGAATACTTTATAATTCAAT | -0.0074 ratio |
| ACAAAAATTCTTGAGCCATTTCCAGATACCGAATCTGACTCAGTGTTGGCAAAACCTACAAAATGAGTGACCAAGAAGGATAAACAAGTTTAGGTAAACACTCTATAGACTGATTCATGATTTAAGTACATCAGTTAGCATTTAGCTTCATTTACCATCGTGTTTTAATGTCATTAAGAATGTAACTTCTTAG | 0.266 ratio |
| ATCTCGTAACAAATGGCTTCAGGGTGTTCAGCTGTTCTGCAGCTATGCTGAGGAATTCCTGCCTGTACAAAAGTCACTGTTCCAAGTCCTGTTTGTTTACATTTTACTAATAAACCTCTGCCTCTGTGCTTAGCCTGAGGGGCTGCAGAGCTCCACACCCAGGAGTGGGCCCTCTGGGGATGCTGGGGTTTGA | 0.48 ratio |
